{"data": "Values quoted from earlier work as cited in several papers", "note": "Protocols differ between the studies behind these lines. pKi: −log10 of the molar value.", "chain of UniProt P21918 (whole entry, looked up)": "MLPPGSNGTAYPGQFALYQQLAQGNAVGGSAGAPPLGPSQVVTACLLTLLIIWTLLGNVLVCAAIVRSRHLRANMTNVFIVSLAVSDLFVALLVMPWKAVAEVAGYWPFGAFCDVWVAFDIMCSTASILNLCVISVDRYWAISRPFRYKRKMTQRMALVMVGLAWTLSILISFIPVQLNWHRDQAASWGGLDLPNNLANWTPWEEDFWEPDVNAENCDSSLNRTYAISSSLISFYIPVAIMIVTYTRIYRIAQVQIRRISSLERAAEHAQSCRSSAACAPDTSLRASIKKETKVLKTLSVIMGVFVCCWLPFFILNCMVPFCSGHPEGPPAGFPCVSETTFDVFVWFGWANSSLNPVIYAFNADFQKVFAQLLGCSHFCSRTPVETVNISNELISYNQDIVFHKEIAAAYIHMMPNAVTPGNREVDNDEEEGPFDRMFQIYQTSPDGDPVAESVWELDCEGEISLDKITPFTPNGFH", "chain of UniProt P18089 (whole entry, looked up)": "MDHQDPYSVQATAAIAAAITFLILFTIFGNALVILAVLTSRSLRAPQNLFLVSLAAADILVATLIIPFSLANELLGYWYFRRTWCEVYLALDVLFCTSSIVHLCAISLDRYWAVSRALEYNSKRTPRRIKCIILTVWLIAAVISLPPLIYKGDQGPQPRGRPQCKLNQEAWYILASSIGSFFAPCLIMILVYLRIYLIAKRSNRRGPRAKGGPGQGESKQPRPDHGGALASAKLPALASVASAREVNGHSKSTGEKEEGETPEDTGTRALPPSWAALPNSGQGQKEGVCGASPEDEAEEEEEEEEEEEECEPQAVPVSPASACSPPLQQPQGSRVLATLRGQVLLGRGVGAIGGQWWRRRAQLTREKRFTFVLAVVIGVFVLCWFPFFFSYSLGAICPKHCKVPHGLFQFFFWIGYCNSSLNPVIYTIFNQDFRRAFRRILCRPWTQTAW"}
{"Molecule": "C=CCN(CC=C)CCc1c[nH]c2ccccc12", "target or system": "Alpha-2B adrenergic receptor (ADRA2B, Homo sapiens, UniProt P18089)", "assay": "binding", "test system": "cloned human receptor", "conditions": "together with: [3H]rauwolscine", "measurement": "pKi", "result": 6.52}
{"Molecule": "ibogaine", "test system": "human", "conditions": "single treatment, neurological and mental scales", "measurement": "response rate", "result": "> 90%"}
{"Molecule": "CC[C@@H]1CN2CCc3c([nH]c4cccc(OC)c34)[C@@H]2C[C@@H]1/C(=C\\OC)C(=O)OC", "test system": "MOR knockout mouse C57BL/6J", "conditions": "oral, 45 mg/kg", "how to read": "baseline: wild type", "measurement": "antinociception", "result": "decreased"}
{"Molecule": "CCCCCCCCCCC(=O)O[C@H]1CC[C@H]2[C@H]3[C@H]([C@@H](C)C[C@]12C)[C@H]1CCC(=O)C=C1C[C@H]3C", "assay": "measured: plasma LH", "test system": "castrated adult rat", "conditions": "subcutaneous, 12 mg/kg single", "measurement": "duration of LH suppression", "result": "≥ 18 weeks"}
{"Molecule": "N[C@@]1(c2ccccc2Cl)CCC[C@@H](O)C1=O", "test system": "Wistar rat", "conditions": "dose not given, locomotor activity during recovery", "measurement": "general anaesthetic activity", "result": "inactive"}
{"Molecule": "O=C(O)CCCO", "test system": "baboon", "conditions": "420 mg/kg, first 2 h", "how to read": "baseline: vehicle", "measurement": "food-maintained responding", "result": "decreased"}
{"Molecule": "CCN(C(=O)[C@@H]1C=C2c3cccc4[nH]cc(c34)C[C@H]2N(C)C1)C(C)C", "assay": "drug discrimination", "test system": "rat", "conditions": "full substitution, together with: LSD 0.08 mg/kg training drug", "how to read": "baseline: LSD", "measurement": "relative potency", "result": "36%"}
{"Molecule": "CCCC(C(=O)c1ccc2c(c1)OCO2)N1CCCC1.Cl (racemic)", "assay": "ICSS facilitation", "test system": "rat", "how to read": "baseline: cocaine", "measurement": "relative potency", "result": "~3 fold"}
{"Molecule": "C=CCN(CC=C)CCc1c[nH]c2ccc(Br)cc12", "target or system": "D(1B) dopamine receptor (DRD5, Homo sapiens, UniProt P21918)", "measurement": "pKi", "result": "< 5.00"}
{"Molecule": "CCCCCc1cc(O)c2c(c1)OC(C)(C)[C@@H]1CC=C(C)C[C@@H]21", "test system": "rabbit alpha-chymotrypsin glaucoma model", "conditions": "topical, 50 µL of 0.4% w/v, submicron emulsion", "measurement": "duration of IOP decrease", "result": "≤ 8 h"}
